Experimental data pooled from the literature.
Compare with care: the assays were run in different laboratories. Several values in a cell are separate wells, animals, samples, runs or records. Numbers after ± are the reported error.
ABCG2: Broad substrate specificity ATP-binding cassette transporter ABCG2 (ABCG2, Homo sapiens, UniProt Q9UNQ0)
Sequence of UniProt Q9UNQ0 (whole entry, looked up): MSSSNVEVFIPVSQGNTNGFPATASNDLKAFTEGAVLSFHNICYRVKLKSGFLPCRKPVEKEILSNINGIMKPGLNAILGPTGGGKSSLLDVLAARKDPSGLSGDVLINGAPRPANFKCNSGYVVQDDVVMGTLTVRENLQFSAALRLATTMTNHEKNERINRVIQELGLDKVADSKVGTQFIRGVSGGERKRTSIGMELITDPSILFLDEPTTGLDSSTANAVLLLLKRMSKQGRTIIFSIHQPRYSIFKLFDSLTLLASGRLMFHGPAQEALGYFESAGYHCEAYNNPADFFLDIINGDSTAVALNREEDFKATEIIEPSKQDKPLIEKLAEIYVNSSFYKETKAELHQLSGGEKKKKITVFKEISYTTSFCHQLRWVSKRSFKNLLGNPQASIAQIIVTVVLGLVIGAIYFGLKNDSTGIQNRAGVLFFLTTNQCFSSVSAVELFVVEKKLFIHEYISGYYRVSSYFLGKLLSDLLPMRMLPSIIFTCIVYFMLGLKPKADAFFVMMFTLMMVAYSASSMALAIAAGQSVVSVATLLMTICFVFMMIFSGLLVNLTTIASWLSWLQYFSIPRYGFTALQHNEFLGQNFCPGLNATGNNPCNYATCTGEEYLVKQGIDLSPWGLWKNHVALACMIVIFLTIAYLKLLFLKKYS
CYP3A4: Cytochrome P450 3A4 (CYP3A4, Homo sapiens, UniProt P08684)
Sequence of UniProt P08684 (whole entry, looked up): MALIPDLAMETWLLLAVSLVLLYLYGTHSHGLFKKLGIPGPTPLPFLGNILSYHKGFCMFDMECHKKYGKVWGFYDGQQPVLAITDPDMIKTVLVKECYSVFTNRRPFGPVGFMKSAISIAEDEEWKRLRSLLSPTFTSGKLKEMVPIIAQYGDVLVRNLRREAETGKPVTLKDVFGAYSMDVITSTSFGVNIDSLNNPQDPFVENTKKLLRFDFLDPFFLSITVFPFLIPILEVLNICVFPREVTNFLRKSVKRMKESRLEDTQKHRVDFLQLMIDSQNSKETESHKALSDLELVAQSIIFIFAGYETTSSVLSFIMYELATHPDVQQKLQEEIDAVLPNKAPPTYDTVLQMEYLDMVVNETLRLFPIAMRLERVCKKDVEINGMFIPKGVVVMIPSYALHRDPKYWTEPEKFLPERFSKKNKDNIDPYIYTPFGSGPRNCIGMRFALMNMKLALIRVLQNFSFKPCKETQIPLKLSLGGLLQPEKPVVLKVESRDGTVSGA
Ubiquitin carboxyl-terminal hydrolase 39 ZnF-UBD domain: Ubiquitin carboxyl-terminal hydrolase 39, ZnF-UBD domain (Homo sapiens, UniProt Q53GS9)
Sequence of UniProt Q53GS9 (whole entry, looked up): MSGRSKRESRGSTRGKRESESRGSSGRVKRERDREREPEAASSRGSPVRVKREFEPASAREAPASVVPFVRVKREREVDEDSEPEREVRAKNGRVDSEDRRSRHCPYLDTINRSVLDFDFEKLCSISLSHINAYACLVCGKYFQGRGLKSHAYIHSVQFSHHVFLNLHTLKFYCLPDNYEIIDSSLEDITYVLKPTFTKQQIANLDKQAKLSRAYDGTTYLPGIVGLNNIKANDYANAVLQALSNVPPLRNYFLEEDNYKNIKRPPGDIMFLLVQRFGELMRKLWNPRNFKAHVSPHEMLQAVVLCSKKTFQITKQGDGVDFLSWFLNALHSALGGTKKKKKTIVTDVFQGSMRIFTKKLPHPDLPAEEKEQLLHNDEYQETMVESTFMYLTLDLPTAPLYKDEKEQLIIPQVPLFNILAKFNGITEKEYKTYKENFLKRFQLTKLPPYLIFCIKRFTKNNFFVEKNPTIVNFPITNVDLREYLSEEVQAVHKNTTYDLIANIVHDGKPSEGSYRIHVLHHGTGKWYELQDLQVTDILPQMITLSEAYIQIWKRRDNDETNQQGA
CYP2A6: Cytochrome P450 2A6 (CYP2A6, Homo sapiens, UniProt P11509)
Sequence of UniProt P11509 (whole entry, looked up): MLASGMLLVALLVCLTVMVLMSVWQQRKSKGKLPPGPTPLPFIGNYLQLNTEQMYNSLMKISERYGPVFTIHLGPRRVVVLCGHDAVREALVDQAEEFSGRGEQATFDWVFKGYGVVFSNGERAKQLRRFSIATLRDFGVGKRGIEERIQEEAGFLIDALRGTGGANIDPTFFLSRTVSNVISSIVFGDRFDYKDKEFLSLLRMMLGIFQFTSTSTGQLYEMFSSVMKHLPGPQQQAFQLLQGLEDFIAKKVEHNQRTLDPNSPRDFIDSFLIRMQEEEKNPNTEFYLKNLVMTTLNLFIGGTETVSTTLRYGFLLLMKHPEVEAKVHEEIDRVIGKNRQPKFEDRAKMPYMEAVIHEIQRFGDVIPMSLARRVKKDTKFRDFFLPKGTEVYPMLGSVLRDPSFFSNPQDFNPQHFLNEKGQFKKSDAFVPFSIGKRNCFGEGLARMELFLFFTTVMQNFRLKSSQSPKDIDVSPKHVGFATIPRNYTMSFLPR

| Compound | target or system | test | test system | conditions | how to read | quantity | value |
| --- | --- | --- | --- | --- | --- | --- | --- |
| CC(C)c1nc(N(C)S(C)(=O)=O)nc(-c2ccc(F)cc2)c1/C=C/[C@@H](O)C[C@@H](O)CC(=O)O | ABCG2 | substrate | Caco-2 | 5 µM, 2 h, added: Ko143 5 µM |  | Papp (A to B) | 0.36 ± 0.03 ×10⁻⁶ cm/s |
| CC1CCCCC1CC(=O)Nc1nnc(S(N)(=O)=O)s1 (stereo not shown) | Alpha-carbonic anhydrase (Enterococcus faecium, UniProt Q3XYE8) | CO2 hydration, inhibitor, stopped-flow kinetics |  |  |  | Ki | 0.0091 µM |
| COc1ccc(F)cc1C(=O)NCc1ccc(-c2nn([C@@H](C)C(F)(F)F)c(N)c2C(N)=O)cc1 | CYP3A4 |  | human, both sexes, plasma | oral, 200 mg, single dose, added: rifampin |  | AUC(0-inf) | 23600 ng·h/mL |
| Cc1cc(Nc2ncnc3ccc(NC4=NC(C)(C)CO4)cc23)ccc1Oc1ccn2ncnc2c1 | ABCG2 | bidirectional transwell permeability | MDCKII cells transfected with ABCG2 | 1 µM, 1 h, pH 7.4, added: Ko143 1 µM |  | Papp A-B | 11.7 ± 1.91 ×10⁻⁶ cm/s |
| CC[C@H]1[C@@H](O)[C@@H]2[C@H](CC[C@]3(C)[C@@H]([C@H](C)CCNC(=O)NS(=O)(=O)c4ccc(C(C)(C)C)cc4)CC[C@@H]23)[C@@]2(C)CC[C@@H](O)C[C@@H]12 | CYP3A4 | substrate | human, plasma | 10 mg, alone, study day 1 |  | half-life geometric mean | 10.4 h |
| C=CC(=O)N1C[C@H](Nc2ncnc3[nH]ccc23)CC[C@@H]1C | CYP3A | substrate | human, plasma | oral, 30 mg single dose, cpd alone |  | AUC(0-inf) | 268 ng·h/mL |
| O=C(O)c1cc(=O)[nH]c(=O)[nH]1 |  | binding, equilibrium dialysis LC-MS |  | 5 µM, thermostabilized A2AR-BRIL construct | reference: no-protein control, direction not given | z-scored log2 fold change | 0.365 |
| O=C(O)CCc1ccc2c(c1)OCO2 | Ubiquitin carboxyl-terminal hydrolase 39 ZnF-UBD domain |  |  |  |  | Kd | > 1000 µM |
| S=C=NCc1ccccc1 | CYP2A6 | enzyme activity |  | concentration not given, 10 min |  | inhibition | > 75% |
| C[C@]12CCCN1CC1=NNC(=O)c3cc(F)cc4[nH]c2c1c34 | ABCG2 | substrate | membrane vesicles | 5 µM, added: AMP |  | uptake rate | 1.06 ± 0.276 pmol/min/mg |
| Cc1cc(C)c(CNC(=O)c2cc(Cl)c3c(c2C)O[C@@](C)([C@H]2CC[C@H](N(C)C)CC2)O3)c(=O)[nH]1 | P-glycoprotein |  | Caco-2 monolayer | 100 µM, added: verapamil 100 µM | reference: B-A over A-B | efflux ratio | 0.94 |
| CN1C[C@@H]2C[C@H]1CN2c1cc2c(cc1F)c(=O)c(C(=O)O)cn2C1CC1 | ABCG2 | transepithelial transport | MDCK-II transduced with ABCG2 | 10 µM, 4 h | reference: B-A over A-B | efflux ratio | 3.22 ± 0.98 |
| COc1ccc2c3c([nH]c2c1)[C@H](CC(C)C)N1C(=O)[C@H](CC(=O)NC(C)C)NC(=O)[C@@H]1C3 | ABCG2 | inhibitor, refers to: protoporphyrin IX | A549 | 0.1 µM, 2 h, added: 1 mM ALA |  | inhibition | 16.5% and 3.48% and 19.2% and 5.15% |
| OC[C@H]1O[C@H](OC[C@H]2OC(O)[C@H](O)[C@@H](O)[C@@H]2O)[C@H](O)[C@@H](O)[C@@H]1O (stereo partly shown) |  | binding, equilibrium dialysis LC-MS |  | 5 µM, thermostabilized A2AR-BRIL construct | reference: no-protein control, direction not given | z-scored log2 fold change | 0.192 |
| N#C[C@H](C[C@@H]1CCCNC1=O)NC(=O)[C@H](CC1CC1)NC(=O)c1cc2cccc(Cl)c2[nH]1 | CYP2A6 | ISEF abundance scaling |  | 2 µM, pH 7.4 |  | fraction metabolised | < 1% |
| CCOc1ccc(Cc2cc([C@]34OC[C@](CO)(O3)[C@@H](O)[C@H](O)[C@H]4O)ccc2Cl)cc1 | CYP3A4 (human) | reaction phenotyping | human | oral, 25 mg |  | fraction metabolised (fm) | 0.1 |
| Cc1cc(C)c(CNC(=O)c2cc(Cl)c3c(c2C)O[C@@](C)([C@H]2CC[C@H](N(C)C)CC2)O3)c(=O)[nH]1 | alpha-1-acid glycoprotein (human) | population PK model | human, plasma |  |  | Kd | 0.221 µM |
| CC(C)(C)N1Cc2cccc(n2)CN(C(C)(C)C)Cc2cccc(n2)C1 | Cu(II) complex | UV-vis titration | 0.1 M NaCl | 25 °C, bound water deprotonation |  | pKa | 9.45 |
| O=C(O)CCn1sc2ccccc2c1=O | Ubiquitin carboxyl-terminal hydrolase 39 ZnF-UBD domain |  |  |  |  | Kd | > 1000 µM |
